Measured values collected from several papers.
Values after ≈ are worked out from the molar mass of the structure shown.

| Compound | target or system | test | system | conditions | how to read | quantity | value |
| --- | --- | --- | --- | --- | --- | --- | --- |
| Cc1ccc(-c2nc3ccc(C)cn3c2CC(=O)N(C)C)cc1 | – | – | human, human liver microsomes 0.5 mg/mL | 5 µM, 24 h, pH 7.4 | – | fu plasma over fu microsomes | 0.147 |
| O=C(c1ccc(Cl)cc1)N1CCN2C(=O)N(OC(=O)N3CCOc4ccccc43)C(=O)C2C1 (stereo not drawn) | Patatin-like phospholipase domain-containing protein 4 (PNPLA4, Homo sapiens, UniProt P41247) | enzyme activity, inhibitor, MS-based ABPP | SW-620 in situ | 10 µM, 2 h, 37 °C | reference: compound over DMSO, lower = stronger inhibition | median ratio | 0.95 |
| Cc1cc(C(=O)NC(C)(C)COc2cccc3c2C(N)=NS(=O)(=O)N3)cc(C)n1 | Salmonella typhimurium | Ames test, initial | TA1535 | 500 µg/plate, together with: rat liver S9 | reference: solvent control | revertant ratio | 1.3 |
| CC[C@H](C)[C@@H]1NC(=O)[C@@H]2CCCN2C(=O)[C@H](CC(C)C)NC(=O)[C@H](CC(C)C)NC(=O)CNC(=O)[C@@H](NC(=O)[C@@H](NC(=O)[C@H](CC(=O)O)NC(=O)CNC(=O)[C@@H](NC(=O)[C@H](C)NC(=O)CNC(=O)[C@H](CCCCN)NC(=O)[C@H](CC(C)C)NC(=O)[C@H](CC(C)C)NC(=O)[C@H](CCCCN)NC(=O)CNC(=O)[C@@H](NC(=O)[C@@H](N)CC(C)C)C(C)C)C(C)C)C(C)C)CSSC[C@@H](C(=O)O)NC1=O | – | RNA-seq, item: Def6 | mouse, traumatic brain injury model, frontal cortex and hippocampus | dose not given | reference: TBI alone | log2 fold change | -1.73 |
| CC(C)N(CCc1c[nH]c2cccc(O)c12)C(C)C | – | – | male cynomolgus monkey, plasma | intravenous, 1 mg/kg | – | half-life | 0.63 h |
| O=C1c2c(O)c(=O)ccn2N([C@@H]2c3ccccc3SCc3c2ccc(F)c3F)[C@@H]2COCCN12 | – | – | BALB/c mice, plasma | oral, 0.5 mg/kg baloxavir marboxil, 10 h | – | plasma concentration | 0.299 ng/mL |
| CCCCCn1cc(C(=O)Nc2cccc3ccccc23)c2ccccc21 | – | – | Sprague-Dawley rat liver microsomes | 1 µM | – | hepatic clearance | 3.02 L/h/kg |
| O=C(O)c1cn(Cc2cccc(Cl)c2)c2ccccc12 | – | – | F344 rat, male, serum | oral, 150 mg/kg/day, 2 days, group mean | – | gamma-glutamyl transferase | 0 U/L |
| CCCCCn1nc(C(=O)Nc2cccc3ccccc23)c2ccccc21 | – | – | male human liver microsomes | 1 µM | – | hepatic clearance | 1.15 L/h/kg |
| COc1cc(Nc2ncc(F)c(Nc3ccc4c(n3)NC(=O)C(C)(C)O4)n2)cc(OC)c1OC | Nitric oxide synthase 3 (NOS3, Homo sapiens, UniProt P29474) | enzyme activity, inhibitor | – | – | – | IC50 | > 10 µM |
| CCCCCCC#Cc1cncc(-c2nnc(SCc3cc([N+](=O)[O-])cc([N+](=O)[O-])c3)n2C)c1 | – | – | human liver microsomes | – | – | CLint | 357 µL/min/mg |
| C=C(C)[C@@H]1CCC(C)=C[C@H]1c1c(O)cc(CCCCC)cc1O | – | – | human | 750 mg, trial 17075, together with: fluconazole 400 mg | – | subjects with Nasopharyngitis | 0% |
| Cc1ncc2n1-c1ccc(Cl)cc1C(c1ccccc1F)=NC2 | – | – | healthy volunteers, plasma | oral, 5 mg single dose, day 1, given alone | – | AUC(0-inf) | 0.101 µg·h/mL |
| COc1ccc(N2C(=O)N(c3c(C)cccc3Cl)Cc3cnc(Nc4ccc(C5CCN(C)CC5)cc4OC)nc32)nc1 | Homeodomain-interacting protein kinase 1 (HIPK1, Homo sapiens, UniProt Q86Z02) | kinase activity | – | 0.5 µM | – | inhibition | 4.54% |
| N=C(N)NC(=N)Nc1cccc(Cl)c1 | Plasmodium falciparum | – | W2 | – | – | IC50 | 5.01 µM |
| OCc1ncc2n1-c1ccc(Cl)cc1C(c1ccccc1F)=NC2 | – | – | human, plasma | oral, 7.5 mg of midazolam, day 1, geometric mean, no amenamevir | – | Cmax | 15.7 ng/mL |
| OCc1ncc2n1-c1ccc(Cl)cc1C(c1ccccc1F)=NC2 | CYP3A4 (human) | – | human, plasma | oral, 2 mg midazolam, Day 1, together with: single dose encorafenib and binimetinib | reference: Day -7 | geometric LS mean ratio of Cmax | 1.12 |
| COc1ccc2c(c1)[C@]13CCCC[C@@H]1[C@H](C2)N(C)CC3 | – | – | human | oral, dose not given | – | subjects with treatment-related TEAE | 17.9% |

| Compound | target or system | test | system | conditions | how to read | quantity | value |
| --- | --- | --- | --- | --- | --- | --- | --- |
| CC[C@H](C)[C@H](NC(=O)[C@H](CC(C)C)NC(=O)[C@H](CO)NC(=O)[C@H](CC(C)C)NC(=O)[C@H](CC(C)C)NC(=O)[C@@H](N)CO)C(=O)N[C@@H](CCCNC(=N)N)C(=O)N[C@@H](CCCCN)C(=O)N[C@@H](CC(C)C)C(=O)N[C@H](C(=O)N[C@H](C(N)=O)[C@@H](C)O)[C@@H](C)CC | – | – | mouse red blood cells | – | – | minimal haemolytic concentration | 10 µM |
| CC[C@H](C)[C@H](NC(=O)[C@H](Cc1ccccc1)NC(=O)[C@H](CCC(=O)O)NC(=O)[C@H](CCCNC(=N)N)NC(=O)[C@H](C)NC(=O)[C@H](C)NC(=O)[C@H](CCC(N)=O)NC(=O)[C@H](CCC(=O)O)NC(=O)[C@H](CCC(=O)O)NC(=O)[C@H](CC(C)C)NC(=O)[C@H](Cc1ccc(O)cc1)NC(=O)[C@H](CO)NC(=O)[C@H](CO)NC(=O)[C@@H](NC(=O)[C@H](CC(=O)O)NC(=O)[C@H](CO)NC(=O)[C@@H](NC(=O)[C@H](Cc1ccccc1)NC(=O)[C@@H](NC(=O)CNC(=O)[C@H](CCC(=O)O)NC(=O)[C@H](C)NC(=O)CCc1c[nH]cn1)[C@@H](C)O)[C@@H](C)O)C(C)C)C(=O)N[C@@H](C)C(=O)N[C@@H](Cc1c[nH]c2ccccc12)C(=O)N[C@@H](CC(C)C)C(=O)N[C@H](C(=O)N[C@@H](CCCNC(=N)N)C(=O)NCC(=O)N[C@@H](CCCNC(=N)N)C(=O)N[C@@H](CCCCNC(=O)COCCOCCNC(=O)COCCOCCNC(=O)CC[C@H](NC(=O)CCCCCCCCCCCCCCCCC(=O)O)C(=O)O)C(=O)NCC(=O)NCC(=O)N[C@@H](CO)C(=O)N[C@@H](CCCCNc1c(NCCCCCN(O)C(=O)CCC(=O)NCCCCCN(O)C(=O)CCC(=O)NCCCCCN(O)C(C)=O)c(=O)c1=O)C(=O)O)C(C)C [zirconium-89 labelled] | – | – | rat, duodenum | iv, 3 nmol/kg, 72 h, ex vivo | – | tissue uptake | 0.17 %ID/g |
| CCN(CC)C(=O)[C@@H]1C=C2c3cccc4[nH]cc(c34)C[C@H]2N(C)C1 | – | item: not feeling at ease | healthy volunteers | dose not given, 12 to 24 h | reference: placebo, direction not given | List of Complaints score | 0 |
| CO[C@H]1C[C@@H]2CC[C@@H](C)[C@@](O)(O2)C(=O)C(=O)N2CCCC[C@H]2C(=O)O[C@H]([C@H](C)C[C@@H]2CC[C@@H](OC(=O)NCCOCCOCCOCCOCCOCCOCCOCCOCCC(=O)N3CCc4cc(Cn5nc(-c6ccc7oc(N)nc7c6)c6c(N)ncnc65)ccc4C3)[C@H](OC)C2)C[C@@H](O)[C@H](C)/C=C(\C)[C@@H](O)[C@@H](OC)C(=O)[C@H](C)C[C@H](C)/C=C/C=C/C=C/1C | – | – | patients with advanced solid tumours | intravenous, 12 mg weekly, grade 3 or higher | – | decreased appetite leading to dose reduction | 0% |
| O=C(C1CCCCC1)N1CCN(S(=O)(=O)c2cccc3cnccc23)CC1 | – | – | human liver microsomes | 5 µM, together with: NADPH | – | CLint | 642 µL/min/mg |
| C#Cc1ccc2c(c1)C(c1ccccn1)=NCc1c(-c3cnco3)ncn1-2 | – | thermodynamic equilibrium, UV | methanol | 24 h, 25 °C | – | solubility | 4.29 mg/mL (≈ 12.2 mM) |
| O=c1ccc2ccccc2o1 | NHEK | oxygen consumption rate, Seahorse | – | concentration not given, 6 h | – | chance response | 100% |
| Cc1ncc2n1-c1ccc(Cl)cc1C(c1ccccc1F)=NC2 | – | – | healthy humans | oral, dose not given | – | contact dermatitis events | 0% |
| COc1cc2c(Oc3ccc4[nH]c(C)cc4c3F)ccnc2cc1OCC1(N)CC1 | – | item: grade 1 or 2 influenza-like symptoms | paediatric high-risk refractory sarcoma | whole group | – | incidence of adverse event | 8.8% |
| CC(=O)N1CCC(C(=O)N2CCN3C(=O)c4cc(-c5ccccc5)ccc4NC(=O)C3C2)CC1 (stereo not drawn) | Salmonella typhimurium | – | TA98 | 15.8 µg/plate | – | revertants per plate | 27 |
| C[C@H]1CN(c2n[nH]c3nc(N[C@H]4CC[C@H](NS(=O)(=O)CCC(F)(F)F)CC4)ncc23)CCO1 | Structural maintenance of chromosomes protein 2 (Homo sapiens, UniProt O95347) | Kinobeads competition, item: SMC2 | – | 0.032 µM, unit not given | reference: vehicle | remaining binding | 0.94 |
| CCCCOc1nc(N)c2c(n1)N(Cc1cccc(CN3CCCC3)c1)CC(=O)N2 | – | – | human | oral, 2 mg, grade 1 | – | headache incidence | 13.3% |
| CCCCCCCCCCC(=O)O[C@H]1CC[C@H]2[C@@H]3CCC4=CC(=O)CC[C@]4(C)[C@H]3CC[C@]12C | – | – | human male serum | 500 ng/mL, NaF 50.0 mg/mL, baseline testosterone 544 ng/dL | – | testosterone level | 542 ng/dL |
| COC[C@@H](NC(C)=O)C(=O)NCc1ccccc1 | – | fluorescence quenching | human healthy male, plasma | oral, 100 mg single | – | MRT(0-inf) | 17.5 h |
| Cc1ncc2n1-c1ccc(Cl)cc1C(c1ccccc1F)=NC2 | – | – | human | oral, dose not given | – | subjects with TEAE leading to death | 0% |
| C[C@]12CC[C@H]3[C@@H](CCC4=CC(=O)CC[C@@]43C)[C@@H]1CC[C@@H]2O | – | – | human liver microsomes | 1 µM | – | hepatic clearance | 0.93 L/h/kg |
| C[C@]12CC[C@H]3[C@@H](CCC4=CC(=O)CC[C@@]43C)[C@@H]1CC[C@@H]2O | – | lipid PAMPA | PBS | 10 µM, 16 h, pH 7.4, 25 °C | – | permeability (Pe) | 269 nm/s |
| C[C@@H](c1ncncc1F)[C@](O)(Cn1cncn1)c1ccc(F)cc1F | – | – | human | oral, 400 mg | – | TEAE leading to discontinuation | 0% |
